Experimental data of several laboratories.
Compare with care: the assays were run in different laboratories.
Target: cAMP-dependent protein kinase catalytic subunit beta (PRKACB, Homo sapiens, UniProt P22694)

Compound	test	conditions	how to read	measurement	result
CNC(=O)C1CCN(c2cc(C)c(F)cc2NC(=O)c2ccc(-c3cc(O)ccc3C)c(C)c2)CC1	binding, competition with immobilised ligand	1 µM	–	remaining binding	99%
CNC1C[S+]2CC[S+]3CC[S+](C1)[Ru-4]321([N]=C=S)[n]2c3ccc(OC)cc3c3c4c(c5cc(F)c[n+]1c5c32)C(=O)NC4=O (stereo not shown)	KinomeScan	0.1 µM	baseline: untreated	remaining binding	86%
O=C(Cc1ccc(OCc2ccccc2)cc1)NC1(C(=O)O)CCN(C(=O)c2ccc(-c3cccc(Cl)c3)cc2)CC1	enzyme activity, inhibitor	10 µM	–	activity vs control	108%
CCN1CCN(Cc2ccc(C(=O)Nc3ccc(C)c(NCc4cnc5[nH]ccc5c4OC)c3)cc2C(F)(F)F)CC1	binding, competition with immobilised ligand	1 µM	–	remaining binding	62%
Cc1ccc(-c2c(/C=C(\C#N)C(=O)NC(C)C)n(CCCO)c3ncnc(N)c23)cc1	cell-free assay, competition with immobilised ligand	1 µM	–	remaining binding	100%
Nc1ncc(-c2cc(-c3cnn(CC(F)(F)F)c3)ncc2F)nc1C(=O)NC1CNCC(F)C1 (stereo not shown)	enzyme activity	1 µM	baseline: DMSO control	remaining activity	103%
Cc1cccc(O[C@H]2CCC[C@@H](C(C)CNCc3ccncc3)C2)c1 (relative stereo)	enzyme activity, inhibitor	10 µM	–	inhibition	-2%
CN1CC[C@@H](COc2cnc(C#N)cc2-c2ccn3nc(NC(=O)C4CC4)cc3c2)C1	enzyme activity, inhibitor	1 µM	–	inhibition	-4%
NC(=O)C[C@H]1CCc2sc3ncnc(O[C@H]4CC[C@H](N5CCOCC5)CC4)c3c21	enzyme activity, inhibitor	10 µM	–	inhibition	4%
C=CC(=O)Nc1cccc(-c2cnc3[nH]cc(C(=O)NC(C)(C)C)c3n2)c1	enzyme activity, inhibitor	0.1 µM	–	inhibition	3%
CC(C)=CC1OC(C)(C)C2C=C3C(=O)C(Cl)=CC(O)C3C3C(O)C4OC4C(=O)C132 (stereo not shown)	cell-free assay, competition with immobilised ligand	10 µM	–	remaining binding	98%
CN1CCN(Cc2ccc(-c3ccc(CO[C@H]4CCC[C@@H]4NC(=O)c4cc(-c5cnn(C)c5)cnc4N)cc3)cc2)CC1	enzyme activity, inhibitor	0.1 µM	–	inhibition	5%
CCn1cc(C(=O)O)c(=O)c2c(N)c(F)c(NC3CCCCC3)cc21	kinase activity	0.1 µM, together with: ATP at Km	–	inhibition	-3.5%

Some of these lines once more:
Compound	test	conditions	how to read	measurement	result
NC(=O)C[C@H]1CCc2sc3ncnc(O[C@H]4CC[C@H](N5CCOCC5)CC4)c3c21	enzyme activity, inhibitor	10 µM	–	inhibition	4%
